Experimental data from different studies.
A part holds a random share of what one study measured. Positions count from the first letter of the parent shown.

Set 1
Target: RING finger protein unkempt homolog, zinc fingers 1-6, GST-SBP tag (UNK, Homo sapiens, UniProt Q9C0B0, residues 30-357)
Method: RNA Bind-n-Seq
Molecule type: RNA
Sample: in vitro
Tested at: not given
Setting: RNA with constant flanks, ends assumed
Baseline: input RNA pool
Reading: higher = stronger binding
Constant ends, left off below: GGGAGUUCUACAGUCCGACGAUC … CAACAGAGGAUUGAGCAUCA
Residues (chain): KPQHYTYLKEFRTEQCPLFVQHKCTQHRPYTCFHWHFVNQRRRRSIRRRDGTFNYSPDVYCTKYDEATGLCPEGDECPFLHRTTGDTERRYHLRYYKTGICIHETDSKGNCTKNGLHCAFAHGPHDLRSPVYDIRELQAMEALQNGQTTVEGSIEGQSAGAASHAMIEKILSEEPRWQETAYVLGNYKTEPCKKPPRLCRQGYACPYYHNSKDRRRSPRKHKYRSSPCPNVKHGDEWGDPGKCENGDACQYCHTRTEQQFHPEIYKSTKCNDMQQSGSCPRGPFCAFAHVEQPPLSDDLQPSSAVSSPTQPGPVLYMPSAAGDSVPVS
| Oligonucleotide | bound/input enrichment [ratio] |
| --- | --- |
| AUGACUCUGCUGUUCUAAGCCUCCCAUGGUUCUCUUGUAACUGUGUUGGCUUGCUUUAAAACCGAGCAAGCCUAGGGCUGGUGAGAUGGCUCAGUGGGUAAGAGCACCCGACUGCUCUUC | 0.0751 |
| CUUGUUUAAAGCAAAACAAGACCUUGAAAGGUCAAUCAUAUUAAAGCUGGUUUGAUUAUUAACCGUUAUCUUUUAGGAAGAAGCUUUUUUCCCUAUGUAAGAUGUCAUACUGCAGAUUUA | 1.58 |
| UUUCUUAUUUUGAUAUUUUUUUAAUGUUGUGGAUGAAUGCCAGCUUUCAGACAGAGCCCACUCCGCUUGUCCACAUGGAUCUCAAUGCCAAUCCUCCAUUCUUCCUCUCCAGAUAUUUUU | 2.63 |
| AGUGUUAAAUUUAACCCAAUUGAGACAUUUCUCUUGGGAAGUUGUGCAUCUGACAGGAAUACCGUACUGUACGAUAUGAGGCAAGCUACUCCUUUGAAAAAGGUUAUCUUAGAUAUGAGA | 0.212 |
| GAUCUCGUCUGAGCAUCUCUAGUGACCUUCUCUGCAUUAACUGUCAGUGCUACGGAUAUUUUCCGCUCCAAGUCCUGGCAGGGUGGGGCACCUAUCUGAGGCAGGGUUUGGUGCCCCCUC | 0.163 |
| UUUUUUCUGCCAAAAGGAGCCUACAUUUAUAAUGCACUUAUUGAAUUCAUUAGGAGCGAAUACCGGAAAAGAGGAUUCCAGGAGGUAGUCACCCCAAACAUCUUCAACAGCCGACUCUGG | 0.598 |
| AAAUACAAGCAAGCUUUACUACAGUAUAAGAAGAUCGUGUCUUGGCUGGAAUAUGAGUCCCGUUUUUCCAAUGAGGAAGCACAGAAAGCACAGGCCCUUCGACUGGCCUCUCACCUCAAC | 0.14 |
| UGUGGCUGAGGACUUUGUACAUUGUUUUGUUUUUUUUUUUUUUUGGUUUUGUCUUUUUUUAACCGUCAUUCCAAGUAUCCAUGAAAUAAGUGGUUACAGGAAGUCCCUCACCCUCCCAAA | 1.52 |

Set 2
Target: CCNB1, cyclin fold, Cln2 fusion (human)
Method: yeast growth competition, sequencing
Sample: yeast
Setting: weak parent motif
Baseline: not given
Reading: higher = stronger binding
Parent: CDC25A docking peptide (human); PPHRRRLLFACSP
| Change | normalised enrichment score |
| --- | --- |
| PPHRLRLLFACSP [R5L] | 0.685 |
| PPHRRWLLFACSP [R6W] | 0.884 |
| PPHRSRLLFACSP [R5S] | 0.85 |
| PPHPRRLLFACSP [R4P] | 0.0115 |
| PPHRRRFLFACSP [L7F] | 0.271 |
| PPHRRLLLFACSP [R6L] | 0.326 |
| PPVRRRLLFACSP [H3V] | 2.16 |
| PPHRRKLLFACSP [R6K] | 0.242 |
| PMHRRRLLFACSP [P2M] | 0.687 |
| PPHRRQLLFACSP [R6Q] | 0.717 |
| PPHRRNLLFACSP [R6N] | 0.786 |
| PPMRRRLLFACSP [H3M] | 0.62 |
| DPHRRRLLFACSP [P1D] | 0.624 |
| YPHRRRLLFACSP [P1Y] | 0.664 |
| PPHRRRLLFRCSP [A10R] | 0.824 |
| PPHRRRLLFAYSP [C11Y] | 0.459 |
| PPHRRRLLFNCSP [A10N] | -0.0057 |
| PCHRRRLLFACSP [P2C] | 1.27 |
| PPHRRRLLFQCSP [A10Q] | 0.698 |
| PPHRTRLLFACSP [R5T] | 0.199 |
| PPHRERLLFACSP [R5E] | 0.15 |
| PPHRRRLNFACSP [L8N] | 0.521 |
| PPGRRRLLFACSP [H3G] | 0.661 |
| PPHRRRLLFACSR [P13R] | 0.624 |
| KPHRRRLLFACSP [P1K] | 1.24 |

Set 3
Target: Interferon regulatory factor 5, full length, phosphomimetic (IRF5, Homo sapiens, UniProt Q13568-2, residues 1-514, K96S/S451D/S453D/S456D/S462D)
Method: protein-binding microarray
Molecule type: double-stranded DNA, one strand shown
Sample: in vitro
Tested at: 250 nM
Setting: 60-bp whole probe
Together with: salmon DNA 0.4 mg/ml
Baseline: random background probes
Reading: higher = stronger binding
Constant ends, left off below: GCCTAGCAC … GTCTTGATTCGCTTGACGCTGCTG
| Oligonucleotide | log fluorescence [z-score] |
| --- | --- |
| ACACGGCTCTAAACTCATGTAGTGCTA | -0.156 |
| TTAGATTTCGGGTATAGATTAGTGCTA | 5.81 |
| CTAGATATCAGACTGGATTAGTGCTAG | 0.143 |
| GACGATTTCAGTGCCGAGACGTGCTAG | 0.778 |
| CTTTTTTTCCGAGTGAGTAAGTGCTAG | 0.483 |
| GACGATTCCAATTTCGAGACGTGCTAG | 2.38 |
| TCAGGTCTGGGTATTTTACTGTGCTAG | -0.389 |
| TTAGGTTTCGGTTTCTGTTAGTGCTAG | 10.8 |
| TTAGATTCCAGTTACGATTAGTGCTAG | 0.713 |
| TAAGGTATCGACTATCGGTTAGTGCTA | 7.66 |
| TTTAGGTCCCTTTTCATGCTGTGCTAG | 0.113 |
| GACGGACTGCTTGTCCTGACGTGCTAG | -0.521 |
| AACTGCATCCCAGGAGCTGGGTGCTAG | -0.723 |
| TAAGGTATCGGTATCGGTTAGTGCTAG | 8.75 |
| TTAGGACTGCTTATCCTCTAGTGCTAG | -0.316 |
| TTAGGTTTCGGTATCGGTTAGTGCTAG | 10.8 |
| TTAGAACCGAGTATCGATTAGTGCTAG | 6.49 |
| CTAGATATCGGGTTTCGATTAGTGCTA | 7.67 |
| TTAGGTATCGCGACTGGGTTAGTGCTA | 0.278 |

Set 4
Target: RNA binding protein fox-1 homolog 2, RRM domain, GST-SBP tag (RBFOX2, Homo sapiens, UniProt O43251-10, residues 100-194)
Method: RNA Bind-n-Seq
Molecule type: RNA
Sample: in vitro
Tested at: 365 nM
Setting: natural RNA segment, single round, ends assumed
Baseline: no-protein control
Reading: higher = stronger binding
Constant ends, left off below: GGGAGUUCUACAGUCCGACGAUC … UGGAAUUCUCGGGUGCCAA
Residues (chain): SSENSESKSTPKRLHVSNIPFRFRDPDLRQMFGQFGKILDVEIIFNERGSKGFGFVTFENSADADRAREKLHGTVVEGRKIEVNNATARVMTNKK
| Oligonucleotide | RBNS enrichment (R) |
| --- | --- |
| GGGGAGGGGGUUGUGGUAAGGGCCCUCUGGAAAUCAAGCAGAGAAUGCCUUUGCAGUGGUCUCCCGGGCAUUGGGCAGGGCCUAGCCUUUUGCAGCCCCCAGAGGACCUU | 0.495 |
| CUAACUGGAAGAGGAAACGCUGGGGCUGCAGUGAGGGCUCCAAGCUUCUCAGUGCCAACCACGCCCUGCCAGCCCCUCCUCCCAUUCUCUUCCCCAGCCUGCCCUCUGCC | 0.289 |
| CAGGCCUUCAGUGACAUCAGGUCGUUGUCAUCCUUUCCCUCCCUGACCUGUCACGAGCCUCUGCAGGUGCCUGCUCACCAUGGCCCAGCGCCACUCUGUCCUCCGACUCA | 0.448 |
| AGGACUACAGCACACCUGGUUUCCUUUCUUUCUGCCACAGAUCCUUCACAGACGAGAGACUGUUGUCUUUGGAUUUUUCCCUCCGACUUUACUCUGUGAUUUCAGGUUCU | 0.37 |
| GGUAAAUUAUAAGAUCCAGAUGUUAGUGUCUAGAAUUAGCUGUUUAGAAUUCAGAGGGGACAUAUGUUUUAACUUUGUCAUAUAUUAGCAAGAAUUGGUCUACUGUGAUG | 3.19 |
| GGACACACUAUCACCUAUUACAUUUUACUGAUUAACAAAUAAAUUGGAAUUUAAAAAUAUCGAUAUCACCAUGAUUUAAUCCAGAUCUGGGAUUAUGUAGCUAAACAUUG | 0.439 |
| GCCCUGCUGUGUGAUGCUCAUCGCUUCCCUUCGUGCUGGAGCAGUCCCCCAGGUGUCCAUCUCCUAUCUUUUUGUUCCAAUCUUCUGUGAGUUCCAGCUAGCAGGCUUUA | 0.458 |
| GUCUCCCUGGAUCAGAACAGGAGCUCUUAACUACAGUGGCUGAAUAGCUUCUCCAAAGGCUCCCUGUGUUCUCACCGUGAUCAAGUUGAGGGGCUUCCGGCUCCCUUCUA | 0.315 |

For quick reference, copied from above (set 3):
| Oligonucleotide | log fluorescence [z-score] |
| --- | --- |
| TTAGAACCGAGTATCGATTAGTGCTAG | 6.49 |
| GACGATTCCAATTTCGAGACGTGCTAG | 2.38 |
| GACGGACTGCTTGTCCTGACGTGCTAG | -0.521 |
| TTAGATTCCAGTTACGATTAGTGCTAG | 0.713 |
| TAAGGTATCGACTATCGGTTAGTGCTA | 7.66 |
| GACGATTTCAGTGCCGAGACGTGCTAG | 0.778 |
| TTAGGACTGCTTATCCTCTAGTGCTAG | -0.316 |
| CTAGATATCGGGTTTCGATTAGTGCTA | 7.67 |
